Published values collected from several papers.
A part holds a random share of what one study measured. “And” joins repeats or separate records; there may be more than shown.
UniProt P78356, sequence (whole entry, looked up): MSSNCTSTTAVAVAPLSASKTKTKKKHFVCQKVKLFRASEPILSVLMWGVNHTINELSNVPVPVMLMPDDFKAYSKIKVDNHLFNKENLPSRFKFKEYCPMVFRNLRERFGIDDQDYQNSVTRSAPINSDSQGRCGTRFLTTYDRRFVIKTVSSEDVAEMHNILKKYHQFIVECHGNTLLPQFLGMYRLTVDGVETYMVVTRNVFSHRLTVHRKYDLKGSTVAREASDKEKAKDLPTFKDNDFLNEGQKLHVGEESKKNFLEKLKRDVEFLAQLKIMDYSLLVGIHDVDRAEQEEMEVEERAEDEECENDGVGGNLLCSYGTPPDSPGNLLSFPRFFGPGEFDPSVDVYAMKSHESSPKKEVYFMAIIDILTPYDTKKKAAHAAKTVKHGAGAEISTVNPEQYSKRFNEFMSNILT
UniProt Q8N568, sequence (whole entry, looked up): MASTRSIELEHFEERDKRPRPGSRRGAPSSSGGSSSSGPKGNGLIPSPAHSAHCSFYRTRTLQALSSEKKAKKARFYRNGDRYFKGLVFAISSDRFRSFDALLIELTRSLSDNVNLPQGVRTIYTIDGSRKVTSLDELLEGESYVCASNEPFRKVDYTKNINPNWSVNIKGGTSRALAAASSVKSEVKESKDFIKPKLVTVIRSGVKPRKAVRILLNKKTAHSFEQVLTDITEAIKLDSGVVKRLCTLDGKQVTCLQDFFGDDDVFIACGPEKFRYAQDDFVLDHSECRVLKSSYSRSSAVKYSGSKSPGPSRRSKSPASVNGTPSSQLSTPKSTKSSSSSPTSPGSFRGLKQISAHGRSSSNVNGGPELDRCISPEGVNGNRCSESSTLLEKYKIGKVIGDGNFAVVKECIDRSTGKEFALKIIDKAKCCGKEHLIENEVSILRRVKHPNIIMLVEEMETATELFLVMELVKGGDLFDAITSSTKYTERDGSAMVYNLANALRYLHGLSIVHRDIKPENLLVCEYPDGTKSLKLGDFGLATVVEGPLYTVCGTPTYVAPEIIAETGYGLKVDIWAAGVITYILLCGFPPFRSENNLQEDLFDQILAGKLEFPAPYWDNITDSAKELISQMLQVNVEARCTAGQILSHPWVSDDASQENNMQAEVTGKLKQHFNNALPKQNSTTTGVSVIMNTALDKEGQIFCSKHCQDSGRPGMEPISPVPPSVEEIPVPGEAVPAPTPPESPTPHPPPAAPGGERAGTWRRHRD
UniProt O43293, sequence (whole entry, looked up): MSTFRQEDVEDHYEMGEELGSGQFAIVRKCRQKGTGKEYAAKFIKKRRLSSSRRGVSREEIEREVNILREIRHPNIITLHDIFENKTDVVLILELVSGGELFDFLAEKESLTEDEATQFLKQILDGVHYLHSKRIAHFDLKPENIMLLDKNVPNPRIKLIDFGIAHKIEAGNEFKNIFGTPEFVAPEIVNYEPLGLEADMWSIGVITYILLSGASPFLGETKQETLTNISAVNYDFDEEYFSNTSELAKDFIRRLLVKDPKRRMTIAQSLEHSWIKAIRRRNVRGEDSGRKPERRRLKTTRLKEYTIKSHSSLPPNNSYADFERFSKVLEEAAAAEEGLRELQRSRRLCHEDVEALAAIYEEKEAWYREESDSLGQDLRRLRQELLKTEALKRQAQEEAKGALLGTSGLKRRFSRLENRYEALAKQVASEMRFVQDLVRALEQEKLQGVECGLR
UniProt Q9BUB5, sequence (whole entry, looked up): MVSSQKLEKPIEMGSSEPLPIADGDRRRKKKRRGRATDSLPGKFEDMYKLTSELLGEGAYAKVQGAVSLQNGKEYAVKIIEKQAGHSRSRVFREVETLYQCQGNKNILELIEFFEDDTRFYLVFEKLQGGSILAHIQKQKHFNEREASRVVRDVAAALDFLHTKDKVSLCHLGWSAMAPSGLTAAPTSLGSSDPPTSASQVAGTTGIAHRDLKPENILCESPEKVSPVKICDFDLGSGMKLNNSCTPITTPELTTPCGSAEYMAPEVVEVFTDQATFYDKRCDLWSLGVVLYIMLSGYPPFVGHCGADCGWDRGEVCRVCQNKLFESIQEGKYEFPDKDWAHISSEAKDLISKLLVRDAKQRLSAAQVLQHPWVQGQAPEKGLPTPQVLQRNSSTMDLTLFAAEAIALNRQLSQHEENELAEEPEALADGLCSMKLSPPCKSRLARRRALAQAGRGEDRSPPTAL
UniProt Q96Q40, sequence (whole entry, looked up): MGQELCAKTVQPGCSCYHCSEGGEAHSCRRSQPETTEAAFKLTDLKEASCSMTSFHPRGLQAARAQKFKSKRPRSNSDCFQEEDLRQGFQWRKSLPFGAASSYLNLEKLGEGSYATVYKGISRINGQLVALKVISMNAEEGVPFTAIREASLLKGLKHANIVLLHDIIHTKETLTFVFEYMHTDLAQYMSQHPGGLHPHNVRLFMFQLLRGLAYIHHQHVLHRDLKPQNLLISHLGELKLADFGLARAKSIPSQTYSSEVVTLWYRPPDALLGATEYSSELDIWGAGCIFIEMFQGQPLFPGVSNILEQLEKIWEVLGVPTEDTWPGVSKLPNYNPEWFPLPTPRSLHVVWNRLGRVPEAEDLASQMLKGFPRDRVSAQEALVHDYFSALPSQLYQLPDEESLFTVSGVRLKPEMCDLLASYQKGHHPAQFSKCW

Set 1
Organism: Sarcocystis neurona
Observed: parasite growth
Concentration: 10 µM
Time: 96 h
Setting: first screen
Reference: untreated
Endpoint: log2 fold change
CN(C)[C@@H]1C(O)=C(C(N)=O)C(=O)[C@@]2(O)C(O)=C3C(=O)c4c(O)ccc(Cl)c4[C@@H](O)[C@H]3C[C@@H]12: -0.6
COc1ccc2c3c1O[C@H]1C[C@@H](O)C=C[C@@]31CCN(C)C2: 0.15
CCCc1c(OCCCCc2nnn[nH]2)ccc(C(C)=O)c1O: 0.14

Set 2
Compound: O=C(Nc1cnc(Oc2ccc(F)cc2)nc1)N1CCc2ncccc2[C@@H]1c1ccc(F)cc1
Observed: cell-free assay
Method: competition with immobilised ligand
Concentration: 1 µM
Endpoint: remaining binding
MKNK1 (Homo sapiens, UniProt Q9BUB5): 95%
DCLK2 (Homo sapiens, UniProt Q8N568): 90%
DAPK3 (Homo sapiens, UniProt O43293): 100%
CDK15 (Homo sapiens, UniProt Q96Q40): 93%
EGFR (Homo sapiens, UniProt P00533, A750P/del747-749): 86%
PIP4K2B (Homo sapiens, UniProt P78356): 100%

Set 3
Target: Casein kinase I isoform epsilon (CSNK1E, Homo sapiens, UniProt P49674)
UniProt P49674, sequence (whole entry, looked up): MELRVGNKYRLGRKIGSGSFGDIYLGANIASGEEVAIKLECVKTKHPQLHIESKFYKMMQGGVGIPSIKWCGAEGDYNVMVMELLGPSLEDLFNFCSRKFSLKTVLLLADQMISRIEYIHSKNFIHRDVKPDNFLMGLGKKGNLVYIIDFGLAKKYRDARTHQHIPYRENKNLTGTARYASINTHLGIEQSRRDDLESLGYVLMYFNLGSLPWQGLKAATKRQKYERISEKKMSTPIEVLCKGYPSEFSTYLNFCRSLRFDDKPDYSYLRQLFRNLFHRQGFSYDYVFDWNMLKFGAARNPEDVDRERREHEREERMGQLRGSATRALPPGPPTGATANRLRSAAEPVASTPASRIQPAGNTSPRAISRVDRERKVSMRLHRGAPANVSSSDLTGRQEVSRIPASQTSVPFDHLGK
Observed: enzyme activity
Mode: inhibitor
Concentration: 0.5 µM
Reference: control
Endpoint: remaining activity
OCC(O)CCON=C1C(c2c(O)[nH]c3ccccc23)=Nc2ccccc21 (centres unmarked): 43.2%
CNC(=O)c1cc(Oc2ccc(NC(=O)Nc3ccc(Cl)c(C(F)(F)F)c3)cc2)ccn1: 95.9%
CN(C)c1ccc(C=C2C(=O)Nc3ccccc32)cc1: 57.2%
Nc1[nH]nc2nc3ccccc3nc12: 90.2%
O=C1NC(=O)C(c2cn(CCCn3ccnc3)c3ccccc23)=C1Nc1ccccc1: 96.7%
Cc1ccc(NC(=O)c2ccc(CN3CCN(C)CC3)cc2)cc1Nc1nc(-c2cccnc2)cs1: 98.8%
CO[C@H]1C[C@@H]2CC[C@@H](C)[C@@](O)(O2)C(=O)C(=O)N2CCCC[C@H]2C(=O)O[C@H]([C@H](C)C[C@@H]2CC[C@@H](O)[C@H](OC)C2)CC(=O)[C@H](C)/C=C(\C)[C@@H](O)[C@@H](OC)C(=O)[C@H](C)C[C@H](C)/C=C/C=C/C=C/1C: 102%

Mixed results
CC(=O)N[C@@H](Cc1c[nH]c2ccccc12)C(=O)N[C@@H](CCC(=O)C=[N+]=[N-])C(=O)OC(C)C
ribitol level (UPLC-MS/MS; EL4 tumor, C57BL/6 CES1-/- mice, tumor; subcutaneous, 0.3 mg/kg DON equivalent daily, 5 days; higher = more metabolite): 1.02e+06 a.u. and 1.07e+06 a.u. and 1.19e+06 a.u. and 1.28e+06 a.u. and 1.32e+06 a.u.

Repeated from above (set 3):
CNC(=O)c1cc(Oc2ccc(NC(=O)Nc3ccc(Cl)c(C(F)(F)F)c3)cc2)ccn1: 95.9%
